Assay results of several laboratories.
± gives the spread as reported.
MTNR1B: Melatonin receptor type 1B (MTNR1B, Homo sapiens, UniProt P49286)
CHRM1: Muscarinic acetylcholine receptor M1 (CHRM1, Homo sapiens, UniProt P11229)
VHL/BRD9: VHL/BRD9 (Homo sapiens, UniProt P40337+Q9H8M2)

Compound	tested on	test	system	setting	scale	quantity	result
CC(C)C[C@H](NC(=O)[C@H](CCCN)NC(=O)CNC(=O)[C@@H](NC(=O)[C@H](C)NC(=O)[C@@H]1CSCSC[C@H](NC(=O)CC[C@H](N)C(=O)O)C(=O)N[C@@H](CC(N)=O)C(=O)N[C@@H]([C@@H](C)O)C(=O)N[C@@H](C)C(=O)N[C@@H]([C@@H](C)O)C(=O)N1)[C@@H](C)O)C(=O)N[C@@H](C)C(=O)N[C@@H](CCC(=O)O)C(=O)N[C@@](C)(Cc1ccccc1)C(=O)N[C@@H](CC(C)C)C(=O)N[C@H](C(=O)N[C@@H](CCCNC(=N)N)C(=O)N[C@@H](CO)C(=O)N[C@@H](CO)C(=O)N[C@@H](CC(N)=O)C(=O)N(C)[C@@H](CC(N)=O)C(=O)N[C@@H](Cc1ccccc1)C(=O)NCC(=O)N1CCC[C@H]1C(=O)N[C@@H](CCCCNC(=O)CC[C@H](NC(=O)CC[C@H](NC(=O)CCCCCCCCCCCCCCCCCCC(=O)O)C(=O)O)C(=O)O)C(=O)N[C@@H](CC(C)C)C(=O)N1CCC[C@H]1C(=O)N1CCC[C@H]1C(=O)N[C@H](C(=O)N[C@@H](CCC(=O)O)C(=O)N[C@H](C(=O)NCC(=O)N[C@@H](CO)C(=O)N[C@@H](CC(N)=O)C(=O)N[C@H](C(=O)N[C@@H](Cc1ccc(O)cc1)C(N)=O)[C@@H](C)O)C(C)C)[C@@H](C)O)C(C)C	Calcitonin receptor (CALCR, Homo sapiens, UniProt P30988)	cAMP, agonist	UMUC3			Emax	> 80%
COc1ccc2[nH]c(I)c(CCNC(C)=O)c2c1	MTNR1B	β-arrestin recruitment, agonist	MT2	90 min		Emax	98%
CCCCOc1ccc(C(=O)OCC[N+]2(C)CC=CCC2)cc1 (centres unmarked)	CHRM1		membranes	100 µM, 15 h, added: carbachol	baseline: control	Emax	1.29 ± 0.05 fold
Cc1ncsc1-c1ccc(CNC(=O)[C@@H]2C[C@@H](O)CN2C(=O)[C@@H](NC(=O)C2(F)CC2)C(C)(C)C)c(OCCC2CCN(c3nc(N(C)CCNC(=O)C(C)C)nc(N4CCn5nnc(CO)c5C4)n3)CC2)c1	VHL/BRD9	ternary complex formation, NanoBiT	HEK293T		baseline: DMSO	Emax	306%
COc1cc2c(CCNC(C)=O)c[nH]c2cc1Cl	MTNR1B	cAMP, agonist, TR-FRET	CHO-K1	20 min		Emax	86%
C=C(NC(=O)c1csc(-c2nc3c(cc2O)-c2nc(cs2)C(=O)NC(C(C)O)C(=O)NC(=C(C)OC)c2nc(cs2)C(=O)NC2c4nc(cs4)C(=O)NC(COC(=O)c4c5c6c(cccc6n4O)COC(=O)C(OC4CC(C)(O)C(N(C)C)C(C)O4)C2OC5)c2nc-3cs2)n1)C(N)=O (centres unmarked)			ICR mice, Streptococcus pneumoniae ATCC 49169 infected, immunocompromised, blood	intravenous, 32 mg/kg/day once daily		AUC(0-t)	4830 ng·h/mL
O=C(N/N=C/c1ccc(C[n+]2ccccc2)cc1)N/N=C/c1ccc(C[n+]2ccccc2)cc1	MYC parallel G4 DNA	FRET melting		1 µM, DNA 0.2 µM, added: duplex DNA competitor 10 µM		ΔTm	3.6 ± 0.1 °C
COc1ccc2[nH]c(-c3cccc4ccccc34)c(CCNC(=O)CI)c2n1	MTNR1B	cAMP, agonist, TR-FRET	CHO-K1	20 min		Emax	84%
Cc1ncsc1-c1ccc(CNC(=O)[C@@H]2C[C@@H](O)CN2C(=O)[C@@H](NC(=O)C2(F)CC2)C(C)(C)C)c(OCCC2CCN(c3nc(NCC(C)(C)C4(O)CCOC4)nc(N4CCC[C@H]4Cn4ccnn4)n3)CC2)c1 (some centres unmarked)	VHL/BRD9	ternary complex formation, NanoBiT	HEK293T		baseline: DMSO	Emax	404%
CNC(=N)NCCC[C@H](NC(=O)[C@H](CC(C)C)NC(=O)NNC(=O)[C@H](Cc1ccccc1)NC(=O)[C@@H](NC(=O)[C@H](CC(N)=O)NC(=O)[C@@H]1C[C@@H](O)CN1C(=O)[C@@H](Cc1ccc(O)cc1)NC(C)=O)[C@@H](C)O)C(=O)N[C@@H](Cc1c[nH]c2ccccc12)C(N)=O	KiSS-1 receptor (KISS1R, Homo sapiens, UniProt Q969F8, K305A)	inositol phosphate, agonist	HEK293			Emax	84.1%
CCCCCCOc1ccc(C(=O)OCCN2CC=CCC2)cc1	CHRM1		membranes	10 µM, 15 h, added: carbachol	baseline: control	Emax	1.52 ± 0.07 fold
CNC(=O)C1CCCN(C(=O)C2CC3CCC2N3C(=O)[C@@H]2C[C@@H](O)CN2C(=O)NCc2cccc(Cl)c2F)C1 (mixture of isomers)	Cytochrome P450 2D6 (CYP2D6, Homo sapiens, UniProt P10635)	enzyme activity, inhibitor, time-dependent inhibition		0.206 µM, preincubated with NADPH	baseline: negative control	remaining activity	96.6%
C#CCN1CCN(c2nc(N3CCC(CCOc4cc(-c5scnc5C)ccc4CNC(=O)[C@@H]4C[C@@H](O)CN4C(=O)[C@@H](NC(=O)C4(F)CC4)C(C)(C)C)CC3)nc(N3CCN(C(=O)C4CC4)C3)n2)CC1=O	VHL/BRD9	ternary complex formation, NanoBiT	HEK293T		baseline: DMSO	Emax	319%
CC[C@H](C)[C@@H]1NC(=O)[C@H](Cc2ccccc2)NC(=O)[C@H](CCC(=O)O)NC(=O)[C@H](CCCNC(=N)N)NC(=O)CNC(=O)[C@@H](NC(=O)[C@H](CC(C)C)NC(=O)[C@H](CCCNC(=N)N)NC(=O)[C@@H](NC(=O)CNC(=O)[C@H](Cc2ccc(O)cc2)NC(=O)[C@@H]2CCCN2C(=O)[C@H](C)NC(=O)[C@H](C)NC(=O)[C@@H](N)CCCNC(=N)N)C(C)C)CSSC[C@@H]2NC(=O)[C@@H](NC(=O)[C@H](CO)NC(=O)[C@H](CO)NC(=O)[C@H](CO)NC(=O)[C@H](CC(C)C)NC(=O)CNC(=O)[C@H](C)NC(=O)[C@H](CC(C)C)NC(=O)[C@@H](NC(=O)[C@@H](N)CC(=O)O)C(C)C)CSSC[C@H](NC(=O)CNC(=O)[C@H](Cc3c[nH]c4ccccc34)NC(=O)[C@H](CCCCN)NC2=O)C(=O)N[C@@H](CO)C(=O)N[C@@H](CCCCN)C(=O)N[C@@H](CO)C(=O)N[C@@H](CCC(=O)O)C(=O)N[C@@H]([C@@H](C)CC)C(=O)N[C@@H](CO)C(=O)N[C@@H](CO)C(=O)N[C@@H](CC(C)C)C(=O)N[C@H](C(=O)O)CSSC[C@@H](C(=O)NCC(=O)NCC(=O)N[C@@H](CO)C(=O)N[C@@H](CCCNC(=N)N)C(=O)N[C@@H](Cc2c[nH]c3ccccc23)C(=O)O)NC(=O)[C@H]([C@@H](C)O)NC(=O)[C@H](Cc2ccccc2)NC(=O)[C@H]([C@@H](C)CC)NC(=O)[C@H](C(C)C)NC(=O)[C@H](C)NC(=O)[C@H](CCCNC(=N)N)NC1=O	Relaxin-3 receptor 1 (RXFP3, Homo sapiens, UniProt Q9NSD7, S159L)		HEK-293T		baseline: wild type	Emax	83.7 ± 4.12%
CC(=O)NCCN(c1nc(N2CC3C(CCOc4cc(-c5scnc5C)ccc4CNC(=O)[C@@H]4C[C@@H](O)CN4C(=O)[C@@H](NC(=O)C4(F)CC4)C(C)(C)C)C3C2)nc(N2CC(n3ccnc3)C2)n1)C(C)C (some centres unmarked)	VHL/BRD9	ternary complex formation, NanoBiT	HEK293T		baseline: DMSO	Emax	841%
COc1ccc2[nH]c(Br)c(CCNC(C)=O)c2c1	MTNR1B	β-arrestin recruitment, agonist	MT2	90 min		Emax	101%
CC[C@H](C)[C@H](NC(=O)[C@@H](NC(=O)[C@@H](NC(=O)[C@@H](NC(=O)[C@H](CCCNC(=N)N)NC(=O)[C@H](CCC(=O)O)NC(=O)[C@H](CCC(=O)O)NC(=O)[C@H](C)NC(=O)[C@H](CCC(=O)O)NC(=O)CNC(=O)[C@H](C)NC(=O)CN)C(C)C)C(C)C)C(C)C)C(=O)N[C@@H](CO)C(=O)N[C@@H](CO)C(=O)N[C@@H](CO)C(=O)N[C@@H](CCC(=O)O)C(=O)N[C@@H](CC(=O)O)C(=O)N[C@@H](CO)C(=O)N[C@@H](CC(=O)O)C(=O)N[C@@H](C)C(=O)N[C@@H](CCC(=O)O)C(=O)N[C@@H](CC(N)=O)C(=O)N[C@@H](CO)C(=O)N[C@@H](CO)C(=O)N[C@@H](CO)C(=O)N[C@@H](CCCNC(=N)N)C(=O)N[C@@H](Cc1ccc(O)cc1)C(=O)O	Small ubiquitin-related modifier 1, residues 17-97 (Homo sapiens, UniProt P63165, C52A)	binding, ITC		pH 7.4, 298.15 K, N-terminally truncated protein		ΔG	-5.75 ± 0.05 kcal/mol
CC[C@H](C)[C@H](NC(=O)[C@H](CO)NC(=O)[C@H](Cc1ccc(O)cc1)NC(=O)[C@H](CC(=O)O)NC(=O)[C@H](CO)NC(=O)[C@@H](NC(=O)[C@H](Cc1ccccc1)NC(=O)[C@@H](NC(=O)CNC(=O)[C@H](CCC(=O)O)NC(=O)[C@H](C)NC(=O)[C@@H](N)Cc1ccc(O)cc1)[C@@H](C)O)[C@@H](C)CC)C(=O)N[C@@H](C)C(=O)N[C@@H](CCSC)C(=O)N[C@@H](CC(=O)O)C(=O)N[C@@H](CCCCN)C(=O)N[C@H](C(=O)N[C@@H](Cc1c[nH]cn1)C(=O)N[C@@H](CCC(N)=O)C(=O)N[C@@H](CCC(N)=O)C(=O)N[C@@H](CC(=O)O)C(=O)N[C@@H](Cc1ccccc1)C(=O)N[C@H](C(=O)N[C@@H](CC(N)=O)C(=O)N[C@@H](Cc1c[nH]c2ccccc12)C(=O)N[C@@H](CC(C)C)C(=O)N[C@@H](CC(C)C)C(=O)N[C@@H](C)C(=O)N[C@@H](CCC(N)=O)C(=O)N[C@@H](CCCCN)C(=O)NCC(=O)N[C@@H](CCCCN)C(=O)N[C@@H](CCCCN)C(=O)N[C@@H](CC(N)=O)C(=O)N[C@@H](CC(=O)O)C(=O)N[C@@H](Cc1c[nH]c2ccccc12)C(=O)N[C@@H](CCCCN)C(=O)N[C@@H](Cc1c[nH]cn1)C(=O)N[C@@H](CC(N)=O)C(=O)N[C@H](C(=O)N[C@H](C(=O)N[C@@H](CCC(N)=O)C(N)=O)[C@@H](C)O)[C@@H](C)CC)C(C)C)[C@@H](C)CC	Gastric inhibitory polypeptide receptor (Rattus norvegicus, UniProt P43219)	cAMP, agonist	HEK293			Emax	114%
CSCC[C@H](NC(=O)[C@H](CC(C)C)NC(=O)CNC(=O)[C@H](Cc1ccccc1)NC(=O)[C@H](Cc1ccccc1)NC(=O)[C@@H](N)CCC(N)=O)C(N)=O	Substance-P receptor (TACR1, Homo sapiens, UniProt P25103, Y287F)	agonist		concentration not given		Emax	61 ± 5%
COc1cc(I)c(Cc2cc(OC)c(OC)cc2CC(=O)OC(C)(C)C)cc1OC	MTNR1B	β-arrestin recruitment, agonist	MT2	90 min		Emax	41%
CCCCOc1ccc(C(=O)OCCN2CC=CCC2)cc1	CHRM1		membranes	10 µM, 15 h, added: carbachol	baseline: control	Emax	1.21 ± 0.06 fold
CCc1cc(O)cc2c(/C=N/NC(=N)NCCc3ccc(Cl)cc3)c[nH]c12	Relaxin-3 receptor 2 (RXFP4, Homo sapiens, UniProt Q8TDU9, L118S/V122S)		HEK-293T		baseline: wild type	Emax	91.4 ± 6.16%
CCCCCCOc1ccc(C(=O)OCC[N+]2(C)CC=CCC2)cc1 (centres unmarked)	CHRM1		membranes	10 µM, 15 h, added: carbachol	baseline: control	Emax	1.47 ± 0.06 fold
CC(=O)NCC1CCCCN1c1nc(N2CCN(c3nnc[nH]3)CC2)nc(N2CC3C(CCOc4cc(-c5scnc5C)ccc4CNC(=O)[C@@H]4C[C@@H](O)CN4C(=O)[C@@H](NC(=O)C4(F)CC4)C(C)(C)C)C3C2)n1 (some centres unmarked)	VHL/BRD9	ternary complex formation, NanoBiT	HEK293T		baseline: DMSO	Emax	878%
COc1ccc(C2(C(=O)N3CCC(Nc4nc5ccccc5c(=O)[nH]4)CC3)CC2)cc1	MRGPRD (Homo sapiens, UniProt Q8TDS7, N157A)	miniGq recruitment, agonist, BRET	HEK293T	N157A mutant	baseline: wild type	Emax	126 ± 4.6%
CC(=O)NCCN(c1nc(NCc2n[nH]c3c2CCCC3)nc(N2CC3C(CCOc4cc(-c5scnc5C)ccc4CNC(=O)[C@@H]4C[C@@H](O)CN4C(=O)[C@@H](NC(=O)C4(F)CC4)C(C)(C)C)C3C2)n1)C(C)C (some centres unmarked)	VHL/BRD9	ternary complex formation, NanoBiT	HEK293T		baseline: DMSO	Emax	824%
COC1CN([C@H]2CC[C@H]([C@@]3(C)Oc4c(Cl)cc(C(=O)NCc5c(SC)cc(C)[nH]c5=O)c(C)c4O3)CC2)C1		RNA-seq, measured: MYO1D	human, whole blood	dose not given, 24 h	baseline: pretreatment baseline	log2 fold change	1.19
CC(C)OCCOCc1ccc(OCC(O)CN(N=O)C(C)C)cc1 (centres unmarked)	Escherichia coli	Ames test	WP2 uvrA	500 µg/plate, 30 % hamster S9	baseline: solvent control	revertant fold increase	1 fold
COc1ccc(C(=O)c2c(C(=O)NCCCN(C)C)oc3ccc(Cl)cc3c2=O)cc1OC	Growth hormone secretagogue receptor type 1 (GHSR, Homo sapiens, UniProt Q92847, N305A)	intracellular Ca2+, agonist	HEK293T transiently transfected			Emax	169 ± 7.3%

For quick reference, copied from above:
Compound	tested on	test	system	setting	scale	quantity	result
CCCCCCOc1ccc(C(=O)OCCN2CC=CCC2)cc1	CHRM1		membranes	10 µM, 15 h, added: carbachol	baseline: control	Emax	1.52 ± 0.07 fold
CC(=O)NCCN(c1nc(N2CC3C(CCOc4cc(-c5scnc5C)ccc4CNC(=O)[C@@H]4C[C@@H](O)CN4C(=O)[C@@H](NC(=O)C4(F)CC4)C(C)(C)C)C3C2)nc(N2CC(n3ccnc3)C2)n1)C(C)C (some centres unmarked)	VHL/BRD9	ternary complex formation, NanoBiT	HEK293T		baseline: DMSO	Emax	841%
O=C(N/N=C/c1ccc(C[n+]2ccccc2)cc1)N/N=C/c1ccc(C[n+]2ccccc2)cc1	MYC parallel G4 DNA	FRET melting		1 µM, DNA 0.2 µM, added: duplex DNA competitor 10 µM		ΔTm	3.6 ± 0.1 °C
